Experimental data from different studies.
Lines come from different studies, so protocols differ. ± gives the spread as reported.
rep main protease: Replicase polyprotein 1ab, main protease (rep, Severe acute respiratory syndrome coronavirus 2, UniProt P0DTD1)

Structure (SMILES) | target or system | assay | test system | conditions | how to read | endpoint | value
CC(=O)Cc1cc(=O)c2c(C)cc(O)c([C@@H]3O[C@H](CO)[C@@H](O)[C@H](O)[C@H]3O)c2o1 | rep main protease | reporter gene (Gaussia luciferase), inhibitor | – | 20 µM | – | inhibition | 2.15%
Nc1ncnc2c([C@@H]3N[C@H](CO)[C@@H](O)[C@H]3O)c[nH]c12 | Western equine encephalitis virus | viral replication, inhibitor | Vero 76 | 0.1 µM | – | inhibition | 3%
CSCC[C@H](NC(=O)[C@H](CCCNC(=N)N)NC(=O)[C@H](Cc1ccccc1)NC(=O)[C@H](CS)NC(=O)[C@H](C)NC(=O)[C@@H](NC(=O)[C@@H](NC(=O)[C@H](C)NC(=O)[C@H](CCCNC(=N)N)NC(=O)[C@H](CCCNC(=N)N)NC(=O)[C@H](CCCNC(=N)N)NC(=O)[C@H](CCC(N)=O)NC(=O)[C@H](CCCCN)NC(=O)[C@H](CO)NC(=O)[C@H](CC(C)C)NC(=O)[C@H](CC(C)C)NC(=O)[C@H](CCCCN)NC(=O)[C@H](Cc1c[nH]cn1)NC(=O)[C@H](Cc1c[nH]c2ccccc12)NC(=O)[C@@H](NC(=O)[C@H](C)NC(=O)[C@H](CCCCN)NC(=O)[C@H](CCCCN)NC(=O)[C@H](CO)NC(=O)[C@H](CCCCN)NC(C)=O)C(C)C)C(C)C)C(C)C)C(=O)N[C@H](C(=O)N1CCC[C@H]1C(=O)N[C@@H](CC(C)C)C(=O)N[C@@H](Cc1ccc(O)cc1)C(=O)N[C@@H](CC(N)=O)C(N)=O)[C@@H](C)O | calmodulin 1-148 sites III and IV | calcium binding, Tyr fluorescence titration | – | 12 µM, pH 7.4, 22 °C, together with: 6 µM calmodulin | – | apparent ΔG1 | -10 ± 0.03 kcal/mol
NC(=O)c1cc(C(=O)NC[C@H]2CN(C(=O)/C=C/c3cccnc3)Cc3ccccc32)c[nH]1 | rep main protease | enzyme activity, inhibitor | – | 5 µM | – | inhibition | 9.5%
CC[C@H](C)[C@H](NC(=O)[C@H](CC(C)C)NC(=O)[C@H](Cc1c[nH]c2ccccc12)NC(=O)[C@H](CCC(N)=O)NC(=O)[C@@H](NC(=O)[C@H](Cc1ccccc1)NC(=O)[C@H](C)NC(=O)[C@H](CCCCNC(=O)COCCOCCNC(=O)COCCOCCNC(=O)CC[C@H](NC(=O)CCCCCCCCCCCCCCCCCCC(=O)O)C(=O)O)NC(=O)[C@H](CCC(N)=O)NC(=O)[C@H](C)NC(=O)[C@@H](NC(=O)[C@H](CCCCN)NC(=O)[C@H](CC(=O)O)NC(=O)[C@H](CC(C)C)NC(=O)C(C)(C)NC(=O)[C@@H](NC(=O)[C@H](CO)NC(=O)[C@H](Cc1ccc(O)cc1)NC(=O)[C@H](CC(=O)O)NC(=O)[C@H](CO)NC(=O)[C@@H](NC(=O)[C@H](Cc1ccccc1)NC(=O)[C@@H](NC(=O)CNC(=O)[C@H](CCC(=O)O)NC(=O)C(C)(C)NC(=O)[C@@H](N)Cc1ccc(O)cc1)[C@@H](C)O)[C@@H](C)O)[C@@H](C)CC)[C@@H](C)CC)C(C)C)C(=O)N[C@@H](C)C(=O)NCC(=O)NCC(=O)N1CCC[C@H]1C(=O)N[C@@H](CO)C(=O)N[C@@H](CO)C(=O)NCC(=O)N[C@@H](C)C(=O)N1CCC[C@H]1C(=O)N1CCC[C@H]1C(=O)N1CCC[C@H]1C(=O)N[C@@H](CO)C(N)=O | – | – | healthy subjects | all MAD doses | – | subjects with upper respiratory infection | 0%
CN1C(=N)N[C@](C)(c2cc(NC(=O)c3ccc(F)cn3)ccc2F)CS1(=O)=O | rep main protease | reporter gene (Gaussia luciferase), inhibitor | – | 20 µM | – | inhibition | -0.782%
CCN(CC)c1nc(C)cc(OP(=S)(OC)OC)n1 | uncharacterized protein (Anopheles coluzzii, UniProt A0A6E8VQK1) | enzyme activity, inhibitor | Sf9 cell homogenate | 2.294 µM, 0.1667 h, together with: α-naphthyl acetate substrate | reference: no inhibitor | remaining activity | 108%
CNC(=O)[C@@H](NC(=O)[C@H](CC(C)C)[C@H](O)C(=O)NO)C(C)(C)C | human fibrinogen | SDS-PAGE | Daboia russelii | concentration not given, unit not given, together with: MH venom | reference: untreated fibrinogen | remaining fibrinogen Bβ chain | 0.872
O=C1CCCC(=O)C1CC1C(=O)CCCC1=O | rep main protease | viral replication, mKate2 reporter | SARS-CoV-2 | 20 µM | – | inhibition | -1.09%
Cc1[nH]nc2c(C(=O)N3CCC4(CCC[C@H]4NC(=O)C4=CN=C5NNN=C5C4)CC3)cccc12 | rep main protease | enzyme activity, inhibitor | – | 5 µM | – | inhibition | 9.1%
Nc1ncnc2c1ncn2[C@H]1C[C@H](O)[C@@H](COP(=O)(O)OP(=O)(O)OP(=O)(O)O)O1 | Gag-Pol polyprotein, reverse transcriptase (gag-pol, Human immunodeficiency virus type 1 group M subtype B, UniProt P04585, K653R) | substrate | – | K66R mutant, together with: matched T:A primer template | – | kcat | 0.237 ± 0.0202 s⁻¹
Cn1cnc(Cn2c(=O)[nH]/c(=N\c3cc4cn(C)nc4cc3Cl)n(Cc3cc(F)c(F)cc3F)c2=O)n1 | – | – | human | oral, 375 mg | – | patients with mild TEAE | 9.4%
C[C@]1(C(=O)NC[C@H](NC(=O)c2cncc3[nH]ccc23)c2ccc3ccccc3c2)CCNC1=O | rep main protease | enzyme activity | – | 5 µM | – | inhibition | 13.8%

Some of these lines once more:
Structure (SMILES) | target or system | assay | test system | conditions | how to read | endpoint | value
O=C1CCCC(=O)C1CC1C(=O)CCCC1=O | rep main protease | viral replication, mKate2 reporter | SARS-CoV-2 | 20 µM | – | inhibition | -1.09%
